Measured values pooled from the literature.
Values joined by “and” are separate records of one study, mostly repeats; a detail may differ.
B1: CCL14 28-93 (UniProt Q16627-1); sequence looked up; chain GPYHPSECCFTYTTYKIPRQRIMDYYETNSQCSKPGIVFITKRGHSVCTNPSDKWVQDYIKDMKEN
Chain of UniProt Q7L1T6 (whole entry, looked up): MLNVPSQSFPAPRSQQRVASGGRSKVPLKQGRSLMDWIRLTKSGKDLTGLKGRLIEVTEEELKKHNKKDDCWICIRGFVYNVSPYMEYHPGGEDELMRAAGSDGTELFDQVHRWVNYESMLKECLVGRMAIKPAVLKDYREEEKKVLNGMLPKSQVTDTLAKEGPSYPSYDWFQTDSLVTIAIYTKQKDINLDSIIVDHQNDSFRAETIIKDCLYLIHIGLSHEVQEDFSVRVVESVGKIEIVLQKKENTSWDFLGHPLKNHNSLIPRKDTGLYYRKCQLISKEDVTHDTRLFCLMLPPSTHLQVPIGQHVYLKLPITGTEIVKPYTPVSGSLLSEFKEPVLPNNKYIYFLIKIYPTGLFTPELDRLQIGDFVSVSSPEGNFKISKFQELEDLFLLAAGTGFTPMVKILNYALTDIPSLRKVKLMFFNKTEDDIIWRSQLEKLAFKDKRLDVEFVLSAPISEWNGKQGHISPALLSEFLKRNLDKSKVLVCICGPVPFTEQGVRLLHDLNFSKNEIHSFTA
Chain of UniProt P13010 (whole entry, looked up): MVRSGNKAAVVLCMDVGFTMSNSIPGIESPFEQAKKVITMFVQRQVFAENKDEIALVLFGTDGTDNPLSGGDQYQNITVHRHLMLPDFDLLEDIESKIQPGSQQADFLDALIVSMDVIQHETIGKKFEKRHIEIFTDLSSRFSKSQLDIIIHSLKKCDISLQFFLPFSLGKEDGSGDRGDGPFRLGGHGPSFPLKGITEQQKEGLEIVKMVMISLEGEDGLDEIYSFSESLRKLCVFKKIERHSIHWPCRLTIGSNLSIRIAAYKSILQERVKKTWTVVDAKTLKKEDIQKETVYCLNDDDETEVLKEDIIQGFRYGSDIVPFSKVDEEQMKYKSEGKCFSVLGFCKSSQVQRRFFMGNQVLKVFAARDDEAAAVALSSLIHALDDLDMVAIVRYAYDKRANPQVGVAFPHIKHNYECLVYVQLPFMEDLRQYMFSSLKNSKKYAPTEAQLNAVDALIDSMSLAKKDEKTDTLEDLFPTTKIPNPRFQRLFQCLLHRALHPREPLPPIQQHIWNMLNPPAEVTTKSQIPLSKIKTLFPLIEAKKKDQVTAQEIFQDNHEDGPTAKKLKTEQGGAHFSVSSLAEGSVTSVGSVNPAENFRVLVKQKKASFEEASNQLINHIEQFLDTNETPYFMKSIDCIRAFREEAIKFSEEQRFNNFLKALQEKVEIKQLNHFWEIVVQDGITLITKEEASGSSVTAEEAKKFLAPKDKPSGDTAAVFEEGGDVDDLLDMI
Chain of UniProt Q99062 (whole entry, looked up): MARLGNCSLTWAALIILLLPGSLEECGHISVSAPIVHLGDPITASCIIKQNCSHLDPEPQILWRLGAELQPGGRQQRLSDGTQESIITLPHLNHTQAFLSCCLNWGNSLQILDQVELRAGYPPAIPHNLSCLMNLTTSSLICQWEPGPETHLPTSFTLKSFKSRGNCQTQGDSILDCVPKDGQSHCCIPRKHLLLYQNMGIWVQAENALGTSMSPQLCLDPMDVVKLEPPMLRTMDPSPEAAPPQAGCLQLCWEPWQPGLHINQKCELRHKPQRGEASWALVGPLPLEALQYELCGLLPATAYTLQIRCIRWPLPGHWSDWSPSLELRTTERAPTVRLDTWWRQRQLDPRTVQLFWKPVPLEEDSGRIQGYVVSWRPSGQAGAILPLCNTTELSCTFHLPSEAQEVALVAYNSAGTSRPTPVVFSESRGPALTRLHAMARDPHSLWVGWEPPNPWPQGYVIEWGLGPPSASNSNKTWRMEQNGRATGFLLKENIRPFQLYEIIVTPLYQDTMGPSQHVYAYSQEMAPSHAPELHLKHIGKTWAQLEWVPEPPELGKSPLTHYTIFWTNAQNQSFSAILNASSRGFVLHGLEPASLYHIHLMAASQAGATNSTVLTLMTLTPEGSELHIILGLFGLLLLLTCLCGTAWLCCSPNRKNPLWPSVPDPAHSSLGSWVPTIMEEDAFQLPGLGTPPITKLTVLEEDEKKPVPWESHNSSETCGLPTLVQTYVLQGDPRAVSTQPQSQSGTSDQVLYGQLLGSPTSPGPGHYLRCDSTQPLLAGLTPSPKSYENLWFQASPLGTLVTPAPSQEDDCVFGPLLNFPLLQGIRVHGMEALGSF
Chain of UniProt P43219 (whole entry, looked up): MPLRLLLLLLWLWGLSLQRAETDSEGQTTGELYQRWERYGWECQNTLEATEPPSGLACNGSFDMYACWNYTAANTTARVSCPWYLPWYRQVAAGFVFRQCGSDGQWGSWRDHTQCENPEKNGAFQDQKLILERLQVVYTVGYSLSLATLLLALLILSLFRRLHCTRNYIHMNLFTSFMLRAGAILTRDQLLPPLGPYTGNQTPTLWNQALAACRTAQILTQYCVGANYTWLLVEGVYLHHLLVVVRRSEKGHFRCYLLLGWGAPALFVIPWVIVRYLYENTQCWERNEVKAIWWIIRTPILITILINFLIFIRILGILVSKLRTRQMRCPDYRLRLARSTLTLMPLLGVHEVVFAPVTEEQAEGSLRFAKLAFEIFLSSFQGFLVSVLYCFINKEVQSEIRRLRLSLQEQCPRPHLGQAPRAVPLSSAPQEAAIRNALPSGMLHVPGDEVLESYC
Chain of UniProt P32246 (whole entry, looked up): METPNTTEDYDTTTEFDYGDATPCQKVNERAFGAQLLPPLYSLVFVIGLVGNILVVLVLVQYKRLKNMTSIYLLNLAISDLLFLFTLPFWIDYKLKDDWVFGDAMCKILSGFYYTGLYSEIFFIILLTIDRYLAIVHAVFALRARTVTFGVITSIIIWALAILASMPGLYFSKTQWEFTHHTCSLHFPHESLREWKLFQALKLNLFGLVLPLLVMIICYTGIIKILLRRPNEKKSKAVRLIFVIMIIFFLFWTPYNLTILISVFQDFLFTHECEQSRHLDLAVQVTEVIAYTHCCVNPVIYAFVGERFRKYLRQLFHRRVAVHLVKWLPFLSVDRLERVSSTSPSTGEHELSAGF
Chain of UniProt Q09312 (whole entry, looked up): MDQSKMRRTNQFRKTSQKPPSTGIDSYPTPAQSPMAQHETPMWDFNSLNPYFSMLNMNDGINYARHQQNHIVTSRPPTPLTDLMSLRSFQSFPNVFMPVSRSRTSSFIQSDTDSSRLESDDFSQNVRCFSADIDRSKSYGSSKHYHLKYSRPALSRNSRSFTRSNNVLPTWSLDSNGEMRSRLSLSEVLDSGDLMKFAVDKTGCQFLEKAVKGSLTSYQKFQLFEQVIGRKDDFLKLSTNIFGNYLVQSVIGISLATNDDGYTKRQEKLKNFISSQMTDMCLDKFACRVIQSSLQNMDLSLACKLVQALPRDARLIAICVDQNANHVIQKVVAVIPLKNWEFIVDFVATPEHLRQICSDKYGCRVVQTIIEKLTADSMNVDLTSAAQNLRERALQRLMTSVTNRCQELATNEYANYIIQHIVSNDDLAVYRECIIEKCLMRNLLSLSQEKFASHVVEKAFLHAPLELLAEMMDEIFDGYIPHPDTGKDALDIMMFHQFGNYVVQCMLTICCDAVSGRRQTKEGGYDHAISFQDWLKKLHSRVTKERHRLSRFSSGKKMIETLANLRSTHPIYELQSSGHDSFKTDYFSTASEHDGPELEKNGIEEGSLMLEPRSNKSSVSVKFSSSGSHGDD
Chain of UniProt Q17R89 (whole entry, looked up): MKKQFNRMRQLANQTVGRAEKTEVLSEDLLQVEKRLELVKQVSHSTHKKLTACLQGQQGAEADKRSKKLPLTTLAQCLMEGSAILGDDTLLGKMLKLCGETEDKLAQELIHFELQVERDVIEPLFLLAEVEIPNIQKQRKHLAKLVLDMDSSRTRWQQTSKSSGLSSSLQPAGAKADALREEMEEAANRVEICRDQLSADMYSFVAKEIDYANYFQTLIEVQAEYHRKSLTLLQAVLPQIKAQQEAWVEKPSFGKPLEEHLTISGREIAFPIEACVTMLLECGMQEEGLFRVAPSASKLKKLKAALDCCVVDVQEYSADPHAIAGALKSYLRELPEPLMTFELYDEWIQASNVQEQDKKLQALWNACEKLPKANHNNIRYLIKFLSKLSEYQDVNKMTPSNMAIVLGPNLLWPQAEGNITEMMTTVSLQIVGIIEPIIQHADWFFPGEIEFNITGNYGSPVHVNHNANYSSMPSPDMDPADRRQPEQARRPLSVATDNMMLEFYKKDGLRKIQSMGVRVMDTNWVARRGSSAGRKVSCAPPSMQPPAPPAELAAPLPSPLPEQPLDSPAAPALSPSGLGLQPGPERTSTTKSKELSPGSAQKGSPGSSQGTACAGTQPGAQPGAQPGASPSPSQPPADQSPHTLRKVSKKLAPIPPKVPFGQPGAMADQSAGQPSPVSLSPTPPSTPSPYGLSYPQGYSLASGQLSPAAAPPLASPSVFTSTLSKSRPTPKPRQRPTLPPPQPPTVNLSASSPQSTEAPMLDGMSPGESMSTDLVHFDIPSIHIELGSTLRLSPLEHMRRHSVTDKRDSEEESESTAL
Chain of UniProt Q8WWM9 (whole entry, looked up): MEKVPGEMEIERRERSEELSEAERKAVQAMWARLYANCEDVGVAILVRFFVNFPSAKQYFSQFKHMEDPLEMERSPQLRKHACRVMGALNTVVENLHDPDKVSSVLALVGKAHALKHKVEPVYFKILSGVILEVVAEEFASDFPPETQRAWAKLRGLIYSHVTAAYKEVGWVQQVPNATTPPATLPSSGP

Substance = NGVTKTIAEPRARVEKDYGK (gld-3 860-879 L867A (Caenorhabditis elegans, UniProt Q95ZK7); sequence looked up); target or system = fbf-2 164-575 (Caenorhabditis elegans, UniProt Q09312); test = competition with ligand, fluorescence polarisation; system = peptide; measurement = IC50; value = > 1200 µM
Substance = XRCC5 (Homo sapiens, UniProt P13010); target or system = ARHGAP44 (Homo sapiens, UniProt Q17R89); test = cross-linking MS; system = cells; conditions = together with: iqPIR; measurement = cross-linked residues; value = K265 to K650
Substance = YAEGTFISDYSIAMDKIRQQDFVNWLLAQKGKKNDWKHNLTQ (GIP (Rattus norvegicus, UniProt Q06145)); target or system = Gipr (Rattus norvegicus, UniProt P43219); test = cAMP, agonist; system = peptide, HEK293; conditions = FRET biosensor, stably transfected; measurement = EC50; value = 0.00047 µM
Substance = GSGAGSETVV; target or system = human SCRIB PDZ3-4 tandem (MBP fusion); test = automated holdup; system = peptide, crude extract; conditions = concentration not given, corrected by standard peak, unit not given; scale = reference: biotin control resin, higher = stronger binding; measurement = binding intensity; value = 0.338
Substance = FGA (Homo sapiens, UniProt P02671); target or system = CAPN6 (Homo sapiens, UniProt Q9Y6Q1); test = cross-linking MS; conditions = together with: DSSO; measurement = cross-linked residues; value = K440 to K609
Substance = DYNC1H1 (Homo sapiens, UniProt Q14204); target or system = NUMA1 1-705 (Homo sapiens, UniProt Q14980); test = time-lapse imaging; system = Flp-In T-REx mitotic; conditions = PLK1 inhibition, together with: GSK461364; measurement = cortical dynein loss half-time; value = 29.5 min
Substance = FGG (Homo sapiens, UniProt P02679); target or system = DRC7 (Homo sapiens, UniProt Q8IY82); test = cross-linking MS; conditions = together with: DSSO; measurement = cross-linked residues; value = K146 to K804
Substance = B1 (CCL14 28-93); target or system = CCR1 (Homo sapiens, UniProt P32246); test = competition with ligand, radioligand binding; conditions = together with: 125I-streptavidin CCL3-biotin 400 pM; measurement = IC50; value = 0.0009 µM
Substance = APOA2 (Homo sapiens, UniProt P02652); target or system = APOC1 (Homo sapiens, UniProt P02654); test = cross-linking MS; conditions = together with: DSSO; measurement = cross-linked residues; value = K53 to K56
Substance = DYNLRB1/DYNLL1/DYNLT1/DYNC1LI2/DYNC1I2/DYNC1H1 dynein-1 complex (Homo sapiens); target or system = NINL/KASH5 chimera NINL CC, KASH5 LIC-BD, HaloTag; test = pull-down; measurement = Ka; value = > 1.6e+06 M⁻¹
Substance = GSGAGQITKV; target or system = human SCRIB PDZ3-4 tandem (MBP fusion); test = automated holdup; system = peptide, crude extract; conditions = concentration not given, corrected by standard peak, unit not given; scale = reference: biotin control resin, higher = stronger binding; measurement = binding intensity; value = 0.0701
Substance = CYB5R4 (Homo sapiens, UniProt Q7L1T6); target or system = CYGB (Homo sapiens, UniProt Q8WWM9); test = NO dioxygenation; conditions = 750 nM, 37 °C, wild type, together with: NADH 200 µM; measurement = time; value = < 50 s
Substance = pegfilgrastim, PEGylated, about 39 kDa (Homo sapiens, UniProt P09919-2); target or system = CSF3R (Homo sapiens, UniProt Q99062); test = STAT3-driven luciferase reporter induction, agonist; system = 293-CSF3R; conditions = untreated control sample; measurement = EC50; value = 0.00046 µg/mL
Substance = colistin; target or system = Klebsiella oxytoca; test = broth microdilution; system = clinical isolate RKI 609/16; measurement = MIC; value = 1 µg/mL
Substance = CTLA4 extracellular domain, monomer (Homo sapiens); target or system = ipilimumab Fab; test = SPR; measurement = kon; value = 317000 M⁻¹ s⁻¹ and 491000 M⁻¹ s⁻¹

For quick reference, copied from above:
Substance = GSGAGQITKV; target or system = human SCRIB PDZ3-4 tandem (MBP fusion); test = automated holdup; system = peptide, crude extract; conditions = concentration not given, corrected by standard peak, unit not given; scale = reference: biotin control resin, higher = stronger binding; measurement = binding intensity; value = 0.0701
